Published values gathered from unrelated publications.
Each numbered part is a random draw from the data of one study; scales do not carry over between parts.

Study 1
Target: Phosphate system positive regulatory protein PHO4, full length, GST-tagged (PHO4, Saccharomyces cerevisiae, UniProt P07270, residues 1-312)
Method: competition protein-binding microarray
Form: double-stranded DNA, one strand shown
Sample: in vitro
Tested at: 2 µM
Setting: whole 60-bp probe, lowest competitor level
Together with: Cbf1 competitor, 0.05 µM
Reading: higher = stronger binding
Measurement: fluorescence intensity
Shared flanks, not repeated: … GTCTTGATTCGCTTGACGCTGCTG
Construct (chain): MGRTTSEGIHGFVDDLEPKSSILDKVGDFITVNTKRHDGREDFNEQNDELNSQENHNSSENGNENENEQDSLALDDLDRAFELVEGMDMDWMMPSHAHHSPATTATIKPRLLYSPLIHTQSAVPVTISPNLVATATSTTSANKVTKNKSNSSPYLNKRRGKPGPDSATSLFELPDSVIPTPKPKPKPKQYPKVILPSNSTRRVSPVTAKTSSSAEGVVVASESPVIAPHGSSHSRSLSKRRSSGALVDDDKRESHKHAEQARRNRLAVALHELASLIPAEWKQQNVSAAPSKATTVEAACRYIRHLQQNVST
Oligonucleotide = CTAACGAAGGTTTGTAAAGTGGGTGACAAGCCAAGT; result = 3560 a.u.
Oligonucleotide = CATCCGCACATCGCGCATGTGTGGGTGTATATGCCC; result = 12700 a.u.
Oligonucleotide = CTAACGAAGGTTTGGGGGGTGGGTGACAAGCCAAGT; result = 5430 a.u.
Oligonucleotide = TTCGTCTTCTTCGTCACCGTGACGGGAGCTCTTCGG; result = 3840 a.u.
Oligonucleotide = TGGACGTCAAGATTCTCCGTGACTCGGGCTCTTTTC; result = 2220 a.u.

Study 2
Target: Histone acetyltransferase KAT6A, both winged helices, GST fusion (KAT6A, Homo sapiens, UniProt Q92794, residues 1-181)
Method: protein binding microarray
Form: double-stranded DNA, one strand shown
Sample: in vitro
Tested at: not given
Setting: 8-mer, flanks averaged, mean of 2 arrays, mostly near background
Relative to: not given
Reading: higher = stronger binding
Measurement: E-score
Residues (chain): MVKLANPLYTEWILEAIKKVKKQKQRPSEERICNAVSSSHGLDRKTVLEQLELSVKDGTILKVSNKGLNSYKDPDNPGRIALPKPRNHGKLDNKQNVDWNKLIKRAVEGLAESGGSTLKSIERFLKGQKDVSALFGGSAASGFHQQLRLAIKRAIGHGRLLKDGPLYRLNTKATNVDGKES
Oligonucleotide = GATGCATA; result = -0.0298
Oligonucleotide = ACGCAGCT; result = 0.0996
Oligonucleotide = ATAAAGCA; result = -0.253
Oligonucleotide = CAACTTCA; result = -0.0767
Oligonucleotide = ACACAGGC; result = -0.152
Oligonucleotide = ACCGTCGC; result = 0.322
Oligonucleotide = ACCTTTAG; result = -0.112
Oligonucleotide = CTATCACA; result = -0.0865

Study 3
Target: Interferon regulatory factor 7, full length, phosphomimetic (IRF7, Homo sapiens, UniProt Q92985, residues 1-503, S471D/S472D/S475D/S476D/S477D/S483D/S484D/S487D)
Method: protein-binding microarray
Form: double-stranded DNA, one strand shown
Sample: in vitro
Tested at: 2200 nM top
Setting: 60-bp whole probe
Together with: salmon DNA 0.4 mg/ml
Relative to: random background probes
Reading: higher = stronger binding
Measurement: fitted relative affinity
Shared flanks, not repeated: GCCTAGCAC … GTCTTGATTCGCTTGACGCTGCTG
Construct (chain): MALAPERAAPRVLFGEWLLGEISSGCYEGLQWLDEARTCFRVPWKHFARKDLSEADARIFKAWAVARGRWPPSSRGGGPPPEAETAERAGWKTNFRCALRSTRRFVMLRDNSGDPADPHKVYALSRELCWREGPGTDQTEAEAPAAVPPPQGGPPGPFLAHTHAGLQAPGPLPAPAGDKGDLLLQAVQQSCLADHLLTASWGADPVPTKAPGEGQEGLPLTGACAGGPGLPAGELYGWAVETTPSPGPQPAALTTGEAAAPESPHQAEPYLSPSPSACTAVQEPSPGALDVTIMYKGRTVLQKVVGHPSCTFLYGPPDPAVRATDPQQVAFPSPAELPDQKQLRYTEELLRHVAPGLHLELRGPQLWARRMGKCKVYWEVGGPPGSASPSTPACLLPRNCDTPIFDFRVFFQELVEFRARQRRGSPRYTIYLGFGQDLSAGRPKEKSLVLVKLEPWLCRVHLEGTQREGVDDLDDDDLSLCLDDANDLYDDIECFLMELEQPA
Oligonucleotide = TATTTTTACATTATTACCTCGTGCTAG; result = 1.85 z-score
Oligonucleotide = GACGGTATCGGACTGGGAACGTGCTAG; result = -0.46 z-score
Oligonucleotide = TTAGGACTGCTTTTCCTTAAGTGCTAG; result = 0.688 z-score
Oligonucleotide = GACGGTTTCGGGTATCTGGACGTGCTA; result = 5.96 z-score
Oligonucleotide = GGAGGCTCTTGCTACTGAAGGTGCTAG; result = -0.828 z-score

Other studies, line by line
Substance = PhoQ, residues 284 288 289 292 302 303 SNGLAW; target = PhoP, residues 12 14 15 18 19 VQGLL (Escherichia coli, UniProt P23836); assay = Sort-seq, item: YFP reporter; test system = E. coli; conditions = PhoQ-PhoP variant library, together with: 10 µM Mg2+; scale = relative to: high Mg2+ state, higher = stronger signaling; measurement = fold induction; result = 16.3

For quick reference, copied from above (study 2):
Oligonucleotide = ATAAAGCA; result = -0.253
